{"data": "Assay results from different studies", "note": "Numbered parts are unrelated; each lists some results of a single study."}
{"data": "Sample 1", "target": "Interferon regulatory factor 5, full length, phosphomimetic (IRF5, Homo sapiens, UniProt Q13568-2, residues 1-514, K96S/S451D/S453D/S456D/S462D)", "technique": "protein-binding microarray", "form": "double-stranded DNA, one strand shown", "sample": "in vitro", "tested at": "250 nM", "notes": "60-bp whole probe", "with": "salmon DNA 0.4 mg/ml", "baseline": "random background probes", "direction": "higher = stronger binding", "shared flanks, not repeated": "GCCTAGCAC … GTCTTGATTCGCTTGACGCTGCTG"}
{"Sequence": "TGGTGCTTAGTATTTTTTTCCGTGCTA", "log fluorescence [z-score]": 0.0522}
{"Sequence": "GACGGACTGCTTTTCCAGACGTGCTAG", "log fluorescence [z-score]": -0.271}
{"Sequence": "TTCGGTCTCGGTTTCGGTTAGTGCTAG", "log fluorescence [z-score]": 9.01}
{"Sequence": "TCATGTGTCTTAAATAGGACTGTGCTA", "log fluorescence [z-score]": 0.0959}
{"Sequence": "TCAATTAGAATTTTCATACTGTGCTAG", "log fluorescence [z-score]": 1.14}
{"Sequence": "GTATATATGTGTATATATAAGTGCTAG", "log fluorescence [z-score]": 0.67}
{"Sequence": "TTAGGTTTCGGTAACGGTTAGTGCTAG", "log fluorescence [z-score]": 9.36}
{"Sequence": "GACGGTCTCATACTGCTGACGTGCTAG", "log fluorescence [z-score]": -0.375}
{"Sequence": "CCTCCTCCCTGTTTCCATCTGTGCTAG", "log fluorescence [z-score]": 0.387}
{"Sequence": "GACGGGATCGGGTATCGGGACGTGCTA", "log fluorescence [z-score]": 0.444}
{"Sequence": "GACGATAGCAGTCTCGAGACGTGCTAG", "log fluorescence [z-score]": 0.618}
{"Sequence": "GAGGGTCTCCTTCTCCTGACGTGCTAG", "log fluorescence [z-score]": -0.485}
{"data": "Sample 2", "target": "Sal-like protein 4, full length isoform B (SALL4, Homo sapiens, UniProt Q9UJQ4-2, residues 1-616)", "technique": "universal PBM", "form": "double-stranded DNA, one strand shown", "sample": "in vitro", "tested at": "not given", "notes": "8-mer, flanks averaged, mean of replicates", "direction": "higher = stronger binding", "Residues (chain)": "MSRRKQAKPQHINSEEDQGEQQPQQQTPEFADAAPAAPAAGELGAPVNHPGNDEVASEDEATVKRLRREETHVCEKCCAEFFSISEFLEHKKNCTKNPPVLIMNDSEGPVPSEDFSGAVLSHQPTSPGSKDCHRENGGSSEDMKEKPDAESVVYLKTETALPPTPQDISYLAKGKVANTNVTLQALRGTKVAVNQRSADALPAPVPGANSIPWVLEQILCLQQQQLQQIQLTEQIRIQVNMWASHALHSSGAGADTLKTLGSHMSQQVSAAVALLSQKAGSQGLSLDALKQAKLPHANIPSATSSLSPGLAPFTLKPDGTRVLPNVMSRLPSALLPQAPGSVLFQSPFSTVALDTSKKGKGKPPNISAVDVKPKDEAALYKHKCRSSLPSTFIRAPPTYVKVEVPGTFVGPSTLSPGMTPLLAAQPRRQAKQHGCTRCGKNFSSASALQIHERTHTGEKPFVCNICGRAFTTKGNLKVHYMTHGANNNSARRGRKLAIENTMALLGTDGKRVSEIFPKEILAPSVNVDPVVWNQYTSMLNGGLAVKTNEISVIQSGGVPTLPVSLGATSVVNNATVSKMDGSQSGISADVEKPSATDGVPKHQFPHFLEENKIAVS"}
{"Sequence": "ACGCCCCT", "E-score": -0.154}
{"Sequence": "GGTATTAC", "E-score": 0.143}
{"Sequence": "GCACCACC", "E-score": -0.293}
{"Sequence": "AGGGAGTG", "E-score": -0.203}
{"Sequence": "ACGGGCCC", "E-score": -0.408}
{"Sequence": "ATTTCGTG", "E-score": 0.084}
{"Sequence": "ACACAGGC", "E-score": -0.00429}
{"Sequence": "ATTGGTTC", "E-score": 0.0915}
{"Sequence": "CCATTACC", "E-score": -0.126}
{"Sequence": "CGGGGAGC", "E-score": -0.364}
{"Sequence": "AAGCCTTC", "E-score": -0.0354}
{"Sequence": "ACCCGGTG", "E-score": -0.287}
{"data": "Sample 3", "target": "RNA binding protein fox-1 homolog 2, RRM domain, GST-SBP tag (RBFOX2, Homo sapiens, UniProt O43251-10, residues 100-194)", "technique": "RNA Bind-n-Seq", "form": "RNA", "sample": "in vitro", "tested at": "365 nM", "notes": "natural RNA segment, single round, ends assumed", "baseline": "no-protein control", "direction": "higher = stronger binding", "shared flanks, not repeated": "GGGAGUUCUACAGUCCGACGAUC … UGGAAUUCUCGGGUGCCAA", "Target sequence (chain)": "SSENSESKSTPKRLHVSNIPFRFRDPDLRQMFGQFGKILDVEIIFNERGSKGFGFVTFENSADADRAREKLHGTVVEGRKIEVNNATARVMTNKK"}
{"Sequence": "CUCCCCCCGCACUGCAGCCGCGGGGAGCGCCGCGCCAUCGAGAAGCUCGCGGUGGAAGCCCUGUCCAGCCUGGACGGCGACCUGGCGGGCCGAUACUACGCGCUCAAGAG", "RBNS enrichment (R)": 0.245}
{"Sequence": "UCUCCUGCUCUGAGUUCACUCUGUGCCUCCAUUUGCAUUUUGCUUAGUUGAUCCGGUUUCUCUGUUCUGACAAGGUGGAAAACUGGUAAGCAUCUCAGAUCUGCAGUAUU", "RBNS enrichment (R)": 0.461}
{"Sequence": "GACAUUCACAUCAUUUCACUCUGGUCUGAGUGGUGGCCUGAGAACCAUGGUGGCAUGGACCACCCUCAUCCAUGCAACUCCAGGCCCCAUGGGAACGGAUGUGGAAGGAA", "RBNS enrichment (R)": 0.767}
{"Sequence": "UUUUGUCCUCUUCCAGACACUGUUGCCUCUACCUAGUUAGACAAAUAGGAUUUGACCUACAUUCUGUUGCCCCUAGGUUUGUGUUAGUGUCAGAAAUACUUAAACAGUGG", "RBNS enrichment (R)": 0.309}
{"Sequence": "GUUGUUCUAUUUUGUACAGACAAGUUGGAAAAACAACAGCGACAAAAAAGUCAAGAAACUUUGUAAAAUAUCGUGUGUGUGAUUCCUUGUAAAAUAUUUUCAAAUGGUUU", "RBNS enrichment (R)": 0.979}
{"Sequence": "UCCCGACCCUGUCUCCGCCACCUCGCAGCCCCAUUAAAGCGCUCUCAUCUGGGCUCCGGUUCACUCACUCGCUGUGGCCGCGACUUGCUCUCUCCUUCUCGGGGUAAUUG", "RBNS enrichment (R)": 0.393}
{"Sequence": "GCACAGCGCACUGUGGAGCAGAGAGGAGGGAGACAGGAGUAGGGUUAUCAGGGAAGCUUGCUCUGCCAGGCUGCUCCAGGAUGCCAGCUUGUCUCUGACUCGGUUGAGGU", "RBNS enrichment (R)": 0.525}
{"Sequence": "CCCACGGAGAUCCUAAGCUGGCUGUCUUGUGUGCAGCCUGAGUGGGGUGGUGCAGGCCGGUAGUCUGCCCGUCACUUUGGAUCAUAGCCCUGGGCCUGGCGGCACAGCAG", "RBNS enrichment (R)": 0.401}
{"data": "Further values, each from its own experiment"}
{"Substance": "PhoQ, residues 284 288 289 292 302 303 SSCCRF", "target": "PhoP, residues 12 14 15 18 19 VQALL (Escherichia coli, UniProt P23836)", "assay": "Sort-seq, item: YFP reporter", "test system": "E. coli", "setting": "PhoQ-PhoP variant library, with: 10 µM Mg2+", "scale": "baseline: high Mg2+ state, higher = stronger signaling", "endpoint": "fold induction", "value": 9.65}
{"note": "Repeated from above (sample 2):"}
{"Sequence": "ACACAGGC", "E-score": -0.00429}
{"Sequence": "ATTGGTTC", "E-score": 0.0915}
{"Sequence": "CCATTACC", "E-score": -0.126}
